{"data": "Experimental data of several laboratories", "note": "Every numbered part comes from another study and shows a few of its results, in no order."}
{"data": "Series 1", "target": "Sal-like protein 4, full length isoform B (SALL4, Homo sapiens, UniProt Q9UJQ4-2, residues 1-616)", "technique": "universal PBM", "form": "double-stranded DNA, one strand shown", "sample": "in vitro", "tested at": "not given", "setting": "8-mer, flanks averaged, mean of replicates", "reading": "higher = stronger binding", "Residues (chain)": "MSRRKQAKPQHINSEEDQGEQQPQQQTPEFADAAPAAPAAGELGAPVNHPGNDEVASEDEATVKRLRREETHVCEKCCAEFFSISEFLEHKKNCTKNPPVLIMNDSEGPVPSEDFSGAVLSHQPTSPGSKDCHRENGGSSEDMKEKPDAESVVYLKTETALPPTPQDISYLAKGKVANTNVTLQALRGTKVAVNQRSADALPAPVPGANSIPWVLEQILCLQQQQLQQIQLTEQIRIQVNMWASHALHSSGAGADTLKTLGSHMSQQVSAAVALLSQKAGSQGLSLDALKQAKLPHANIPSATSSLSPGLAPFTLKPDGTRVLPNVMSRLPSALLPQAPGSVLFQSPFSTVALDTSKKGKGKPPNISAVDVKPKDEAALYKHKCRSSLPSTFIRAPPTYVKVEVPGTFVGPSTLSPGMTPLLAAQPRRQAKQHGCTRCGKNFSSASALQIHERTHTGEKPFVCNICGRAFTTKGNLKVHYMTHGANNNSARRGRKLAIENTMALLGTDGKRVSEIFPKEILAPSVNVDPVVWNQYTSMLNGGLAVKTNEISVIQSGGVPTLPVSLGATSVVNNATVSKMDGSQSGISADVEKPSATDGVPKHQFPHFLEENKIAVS"}
{"Sequence": "ACAAAAAA", "E-score": 0.31}
{"Sequence": "CCGTCCCG", "E-score": -0.273}
{"Sequence": "ATGTGAAG", "E-score": 0.262}
{"Sequence": "ACCAAAAA", "E-score": 0.305}
{"data": "Series 2", "target": "TAR DNA-binding protein 43, full length, His tag (TARDBP, Homo sapiens, UniProt Q13148, residues 1-414)", "technique": "RNA Bind-n-Seq", "form": "RNA", "sample": "in vitro", "tested at": "20 nM", "setting": "6-mer, flanks averaged, single round", "together with": "150 mM KCl", "baseline": "input library", "reading": "higher = stronger binding"}
{"Sequence": "GGGCUG", "6-mer enrichment (R)": 3.7}
{"Sequence": "GAGUAG", "6-mer enrichment (R)": 1.47}
{"Sequence": "CCGUCC", "6-mer enrichment (R)": 0.626}
{"data": "Series 3", "target": "Histone acetyltransferase KAT6A, winged helix 1, GST fusion (KAT6A, Homo sapiens, UniProt Q92794, residues 1-85)", "technique": "protein binding microarray", "form": "double-stranded DNA, one strand shown", "sample": "in vitro", "tested at": "not given", "setting": "8-mer, flanks averaged, mean of 2 arrays, mostly near background", "baseline": "not given", "reading": "higher = stronger binding", "Construct (chain)": "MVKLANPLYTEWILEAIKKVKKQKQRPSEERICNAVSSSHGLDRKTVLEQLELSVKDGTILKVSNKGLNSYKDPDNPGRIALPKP"}
{"Sequence": "AGATTTCG", "E-score": 0.0491}
{"Sequence": "TCTTAGCA", "E-score": -0.136}
{"Sequence": "ACTTGCGA", "E-score": -0.127}
{"Sequence": "AGTGAGGC", "E-score": -0.216}
{"Sequence": "ACCCATCT", "E-score": -0.0595}
{"data": "Single results of other studies"}
{"Substance": "PhoQ, residues 284 288 289 292 302 303 NLSRDF", "target": "PhoP, residues 12 14 15 18 19 HLGGL (Escherichia coli, UniProt P23836)", "test": "Sort-seq, item: YFP reporter", "system": "E. coli", "setting": "PhoQ-PhoP variant library, together with: 10 µM Mg2+", "how to read": "baseline: high Mg2+ state, higher = stronger signaling", "measurement": "fold induction", "value": 2.31}
